Results gathered from unrelated publications.
Parts stem from different laboratories: compare values within a part only.

Series 1 — technique: universal PBM; molecule type: double-stranded DNA, one strand shown; sample: in vitro; tested at: 600 nM; direction: higher = stronger binding
Target: Sal-like protein 4, full length isoform A (SALL4, Homo sapiens, UniProt Q9UJQ4, residues 1-1053)
Sequence of UniProt Q9UJQ4 (whole entry, looked up): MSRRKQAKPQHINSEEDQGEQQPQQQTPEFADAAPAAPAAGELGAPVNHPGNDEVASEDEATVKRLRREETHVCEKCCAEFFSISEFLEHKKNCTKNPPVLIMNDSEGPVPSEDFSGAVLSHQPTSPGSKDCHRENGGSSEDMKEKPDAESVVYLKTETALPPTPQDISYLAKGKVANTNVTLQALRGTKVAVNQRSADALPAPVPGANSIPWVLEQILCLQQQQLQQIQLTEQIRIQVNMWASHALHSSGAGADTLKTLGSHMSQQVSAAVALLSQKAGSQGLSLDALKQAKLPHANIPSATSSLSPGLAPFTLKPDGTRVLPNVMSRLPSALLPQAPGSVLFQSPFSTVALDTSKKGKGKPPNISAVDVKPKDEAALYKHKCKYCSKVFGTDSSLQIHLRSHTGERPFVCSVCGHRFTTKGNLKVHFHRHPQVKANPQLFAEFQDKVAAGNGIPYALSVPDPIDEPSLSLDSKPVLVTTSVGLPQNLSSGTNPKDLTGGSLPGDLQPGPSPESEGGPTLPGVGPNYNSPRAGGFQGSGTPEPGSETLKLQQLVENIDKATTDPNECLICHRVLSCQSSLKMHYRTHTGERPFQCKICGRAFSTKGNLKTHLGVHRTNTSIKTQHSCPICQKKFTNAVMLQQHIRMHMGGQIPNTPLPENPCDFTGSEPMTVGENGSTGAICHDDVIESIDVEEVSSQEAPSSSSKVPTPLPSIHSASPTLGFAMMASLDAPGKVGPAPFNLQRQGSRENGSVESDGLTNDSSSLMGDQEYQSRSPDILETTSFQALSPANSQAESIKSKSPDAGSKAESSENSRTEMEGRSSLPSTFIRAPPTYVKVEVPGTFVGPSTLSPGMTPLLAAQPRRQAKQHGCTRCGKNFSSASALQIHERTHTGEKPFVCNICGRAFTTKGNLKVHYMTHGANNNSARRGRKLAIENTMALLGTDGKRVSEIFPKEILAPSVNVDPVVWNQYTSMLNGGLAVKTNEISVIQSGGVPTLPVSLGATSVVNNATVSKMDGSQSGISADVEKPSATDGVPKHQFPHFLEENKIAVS
Notes: 8-mer, flanks averaged, mean of replicates
| Sequence | E-score |
| --- | --- |
| GAGATCCA | -0.159 |
| GGAAACCC | -0.235 |
| GCCTAGCC | -0.231 |
| GAGATCAA | 0.108 |
| CGGGCTAA | -0.224 |
| ATGAAGAC | 0.146 |
| TCACAGCA | 0.000475 |
| ATAGTTGA | 0.311 |
| CTAACTAA | 0.158 |
| AGCCACTA | -0.00843 |
| ACACTACG | -0.00131 |
| GACAGATC | -0.0339 |
| CGAGCATC | -0.202 |
| CCTAGAAC | -0.156 |
| GCGACACA | -0.0976 |
| CTCATCTC | 0.000625 |

Series 2 — technique: protein-binding microarray; molecule type: hairpin DNA; sample: in vitro; tested at: not given; baseline: not given; direction: higher = stronger binding
Target: Runt-related transcription factor 3, Runt domain (RUNX3, Homo sapiens, UniProt Q13761, residues 53-186)
Sequence of UniProt Q13761 (53-186, looked up): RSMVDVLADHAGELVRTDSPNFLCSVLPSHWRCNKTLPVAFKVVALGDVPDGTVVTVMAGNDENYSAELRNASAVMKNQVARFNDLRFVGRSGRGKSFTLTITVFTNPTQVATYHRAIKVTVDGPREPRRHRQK
Notes: whole hairpin DNA, median over replicate spots
| Sequence | median fluorescence |
| --- | --- |
| GAGGCCCGTTGTGGTTGGCCTCCTGGCCAACCACAACGGGCCTCACACTC (5mC at 7) | 5630 a.u. |
| GAGGCCCAGCCGCAACAGCCTCCTGGCTGTTGCGGCTGGGCCTCACACTC (5mC at 36) | 5930 a.u. |
| CTCAGGTCTGTGGGCTGGACTCCTGTCCAGCCCACAGACCTGAGACACTC | 4380 a.u. |
| GAGGCCTGCTGCGGTTGGCCTCCTGGCCAACCGCAGCAGGCCTCACACTC (5mC at 9) | 8100 a.u. |
| CTCAGTTCTATGGGCTGGACTCCTGTCCAGCCCATAGAACTGAGACACTC | 3820 a.u. |
| GAGGCCCGTCGCGGTTGGCCTCCTGGCCAACCGCGACGGGCCTCACACTC (5mC at 37) | 6410 a.u. |
| GAGGCCTGTCGTGGTTGGCCTCCTGGCCAACCACGACAGGCCTCACACTC (5mC at 10 34) | 5770 a.u. |
| GAGGCCTGCTGTGGTTGGCCTCCTGGCCAACCACAGCAGGCCTCACACTC (5mC at 9) | 5090 a.u. |
| CTCAGTTCTGTGGGCCGGACTCCTGTCCGGCCCACAGAACTGAGACACTC (5mC at 16) | 4500 a.u. |
| GAGGCCTGTCGCGGCGGGCCTCCTGGCCCGCCGCGACAGGCCTCACACTC | 5940 a.u. |
| GAGGCCCAACCGCAACGGCCTCCTGGCCGTTGCGGTTGGGCCTCACACTC (5mC at 16 28) | 10400 a.u. |
| GAGGCCTGTTTCGGTTGGCCTCCTGGCCAACCGAAACAGGCCTCACACTC | 4370 a.u. |
| CTCAGCTCTGTGGGCTGGACTCCTGTCCAGCCCACAGAGCTGAGACACTC (5mC at 6) | 4280 a.u. |
| GAGGCCTGTTGCGCGTGGCCTCCTGGCCACGCGCAACAGGCCTCACACTC (5mC at 14 30) | 5070 a.u. |

Series 3 — technique: aptamer microarray, sandwich; molecule type: DNA with 2'F-ANA; sample: in vitro; tested at: 200 nM; together with: Cy3 exosite-II aptamer, 400 nM; direction: higher = stronger binding; sequence: GGTTGGTGTGGTTGG
Target: Prothrombin, mature alpha-thrombin (F2, Homo sapiens, UniProt P00734)
Notes: whole 15-mer aptamer, many near background
| Modification | mean fluorescence intensity [a.u.] |
| --- | --- |
| 2'F-ANA at 1 2 3 8 15 | 295 |
| 2'F-ANA at 3 5 8 9 13 | 109 |
| 2'F-ANA at 2 3 4 6 9 10 11 12 15 | 220 |
| 2'F-ANA at 1 3 5 7 8 10 11 12 | 47.2 |
| 2'F-ANA at 1 4 6 10 12 14 | 47.9 |
| 2'F-ANA at 3 7 10 11 15 | 511 |
| 2'F-ANA at 2 5 6 8 9 13 14 15 | 47.2 |
| 2'F-ANA at 2 3 4 6 8 10 11 15 | 194 |
| 2'F-ANA at 1 2 3 4 5 6 8 12 | 123 |
| 2'F-ANA at 3 5 8 9 10 | 57.7 |
| 2'F-ANA at 3 6 7 8 9 12 13 14 15 | 626 |
| 2'F-ANA at 1 4 5 10 11 14 15 | 45.1 |
| 2'F-ANA at 2 3 5 9 11 12 | 200 |
| 2'F-ANA at 1 2 5 6 7 9 10 13 14 15 | 64 |
| 2'F-ANA at 4 5 6 10 11 13 14 | 46.2 |
| 2'F-ANA at 3 4 6 8 12 13 15 | 669 |
| 2'F-ANA at 1 4 5 9 10 12 13 14 15 | 46.3 |
| 2'F-ANA at 1 2 3 5 6 8 9 10 12 14 | 62.5 |

Series 4 — technique: RNA Bind-n-Seq; molecule type: RNA; sample: in vitro; tested at: 365 nM; baseline: no-protein control; direction: higher = stronger binding
Target: RNA binding protein fox-1 homolog 2, RRM domain, GST-SBP tag (RBFOX2, Homo sapiens, UniProt O43251-10, residues 100-194)
Notes: natural RNA segment, single round, ends assumed
Residues (chain): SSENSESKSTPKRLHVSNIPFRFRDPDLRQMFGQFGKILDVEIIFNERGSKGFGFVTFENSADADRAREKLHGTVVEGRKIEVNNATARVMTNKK
| Sequence | RBNS enrichment (R) |
| --- | --- |
| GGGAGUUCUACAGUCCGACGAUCGAAUAGGGAUCUGUGGUAGCCAGUGUUCCUAUGUUCUGCUAGUACCUGGGUCACCAGCCAUAGGGUACAGCCAGCCCCAGUGUGUGGUCUUGUUGGCCUGCUGGGUAGAAUGGAAUUCUCGGGUGCCAA | 0.853 |
| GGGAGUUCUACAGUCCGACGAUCCCAACAUUUGACACCCCAGCAAUGUGUGACUCCCCCAACAUUCCACUAUGCCAUCCUGCAGCUGAAAUGGGAACACUGGCUGCCUCUCCAAACCCGCUCUUGGACAGAGGUGGAAUUCUCGGGUGCCAA | 0.655 |
| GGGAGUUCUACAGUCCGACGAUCCUUUUUGUAGUUUACUUAAGCCAAAAUGUGUUUUUCCCUCAAUAGCUUCGCUAAUAUUUUAAACAGUCCUGUAAAAACCCACCAAGGACUUUUUGUAUAGAAAGCACUACUGGAAUUCUCGGGUGCCAA | 0.547 |
| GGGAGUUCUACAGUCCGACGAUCGCCCUAUACAUUUGCUCUUCCUAUAUAAGUUGGUGAACUUUCCUAUAUAACAACAUAGAAUAACAACAACAGAAAAUGAUAAGUACAGAUAAAUGGUUAAUUGUUGGGGCUGGAAUUCUCGGGUGCCAA | 0.229 |
| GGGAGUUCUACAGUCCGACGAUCAUAUACAGUUGAGUUGGGAGUAAACUGAAAAGACAAAUGUGUUGAAGGCUAUGCCAGGGAAUCUGGCUCAAAGCCUAACACAGAAGCAGCUUCAUCCCAGUGACGAUGCUUGGAAUUCUCGGGUGCCAA | 0.331 |
| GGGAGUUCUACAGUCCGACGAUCCAACUCGUUUUUAUAUUAAUGUACUUGUUUCUCUGUUGUAAGAAUAGGCAUUAACACAAAGGAGGCGUCUCGGGAGAGGAUUAGGUUCCAUCCUUUACGUGUUUAAAAAAUGGAAUUCUCGGGUGCCAA | 0.72 |
| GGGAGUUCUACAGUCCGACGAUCGAUCGGUGACAGUCACUAGCUUAUCUUGAACAGAUAUUUAAUUUUGCUAACACUCAGCUCUGCCCUCCCCGAUCCCCUGGCUCCCCAGCACACAUUCCUUUGAAAUAAGGUGGAAUUCUCGGGUGCCAA | 0.397 |
| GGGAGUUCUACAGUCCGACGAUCUUUGCACUAGCUCUAAAGAAGAAUUUCUUCUGGUUUUAGAGAACUGAUUUUGUUUUAGCAUUAAACUGUUCAAGUUUUUGUACGUAGAUAUCUAGAUACUGCAGUCAGGUUGGAAUUCUCGGGUGCCAA | 0.805 |
| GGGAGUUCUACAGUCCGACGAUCUUGCAAGUCUAACCUCUGAACAUAAAUUUGGUCAAAUAAUUGGAACAAAGGGAAACAGAUACUUGAUAUGAAAGCCAUAAUGACGGUGACUUGUGUCGUGGGGGAAAACAUGGAAUUCUCGGGUGCCAA | 0.528 |
| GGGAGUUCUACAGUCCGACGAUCAUUACAAUUGCAAAUCUUUACUUACAGGAGAGGAAACAGAAGAGAUAAAAACUUUUCCAUGCAAAUAUCUAUUUCUAAACCACAAUGAUCUGAUUUUCUUUCUUCUUUCUUGGAAUUCUCGGGUGCCAA | 0.415 |
| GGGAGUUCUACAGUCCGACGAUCUGGGAGGUUUGAAGCUUACAAAUUGAGAACGUGCCAUGCAUGAAACAAAGGGUUCCAGGCUCCAGAGAGGAGAUCACCUCGACGCCAAUGUCACCGAGGCACCUGUCUCAUGGAAUUCUCGGGUGCCAA | 9.27 |
| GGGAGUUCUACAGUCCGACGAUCUUAUUCCUGGGAGGUUGCUUAAAGCUGAAAUAGAACUGAAAUGCAGUUGGUAGACUAGCCAAACAUCUGCUUGCUCUCACUUUGUUUUGGAAGAACCAUGGUAGCUUGUCUGGAAUUCUCGGGUGCCAA | 0.99 |

Series 5 — technique: protein binding microarray; molecule type: double-stranded DNA, one strand shown; sample: in vitro; tested at: not given; baseline: not given; direction: higher = stronger binding
Target: Histone acetyltransferase KAT6A, winged helix 1, GST fusion (KAT6A, Homo sapiens, UniProt Q92794, residues 1-85)
Notes: 8-mer, flanks averaged, mean of 2 arrays, mostly near background
Target sequence (chain): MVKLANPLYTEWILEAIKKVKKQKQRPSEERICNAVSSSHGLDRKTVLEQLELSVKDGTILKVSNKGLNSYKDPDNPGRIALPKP
| Sequence | E-score |
| --- | --- |
| CCACAACC | -0.0816 |
| ACCCGTCA | 0.326 |
| AACGGTGT | 0.0665 |
| CATCAAGA | -0.108 |
| AACAGTTG | -0.182 |
| CACCCTCC | -0.113 |
| ACCCTTCT | -0.112 |
| TCACAAAA | -0.177 |
| CTAGGCGA | 0.0818 |
| CACTCAGG | -0.111 |
| CGAAACTC | -0.155 |
| CACCACAA | -0.274 |
| ATTGTACC | -0.0183 |
| TTCGACAA | -0.251 |
| GTGGATCA | -0.139 |
| TCGAACGA | -0.0882 |
| CAATTGCG | 0.21 |
| TTAACGAA | 0.0743 |
| GGGAGTAA | -0.0262 |
| CAGACGGC | 0.327 |
| CGTGCCAC | 0.0931 |
| ACTTGGCC | -0.046 |
| ATAAAAGG | -0.266 |
| ATATGCGA | 0.111 |
| ACATCAAC | -0.0326 |

For quick reference, copied from above (series 2):
| Sequence | median fluorescence |
| --- | --- |
| GAGGCCCGTTGTGGTTGGCCTCCTGGCCAACCACAACGGGCCTCACACTC (5mC at 7) | 5630 a.u. |
| GAGGCCCAGCCGCAACAGCCTCCTGGCTGTTGCGGCTGGGCCTCACACTC (5mC at 36) | 5930 a.u. |
| CTCAGGTCTGTGGGCTGGACTCCTGTCCAGCCCACAGACCTGAGACACTC | 4380 a.u. |
| GAGGCCTGCTGCGGTTGGCCTCCTGGCCAACCGCAGCAGGCCTCACACTC (5mC at 9) | 8100 a.u. |
| CTCAGTTCTATGGGCTGGACTCCTGTCCAGCCCATAGAACTGAGACACTC | 3820 a.u. |
| GAGGCCCGTCGCGGTTGGCCTCCTGGCCAACCGCGACGGGCCTCACACTC (5mC at 37) | 6410 a.u. |
| GAGGCCTGTCGTGGTTGGCCTCCTGGCCAACCACGACAGGCCTCACACTC (5mC at 10 34) | 5770 a.u. |
| GAGGCCTGCTGTGGTTGGCCTCCTGGCCAACCACAGCAGGCCTCACACTC (5mC at 9) | 5090 a.u. |
| CTCAGTTCTGTGGGCCGGACTCCTGTCCGGCCCACAGAACTGAGACACTC (5mC at 16) | 4500 a.u. |
| GAGGCCTGTCGCGGCGGGCCTCCTGGCCCGCCGCGACAGGCCTCACACTC | 5940 a.u. |
| GAGGCCCAACCGCAACGGCCTCCTGGCCGTTGCGGTTGGGCCTCACACTC (5mC at 16 28) | 10400 a.u. |
| GAGGCCTGTTTCGGTTGGCCTCCTGGCCAACCGAAACAGGCCTCACACTC | 4370 a.u. |
